Measured values of several laboratories.
Compare with care: the assays were run in different laboratories. Several values in a cell are separate wells, animals, samples, runs or records.
Target: Dual specificity tyrosine-phosphorylation-regulated kinase 1A (DYRK1A, Homo sapiens, UniProt Q13627)

For `C=CC(=O)N1CCc2ccc(-n3c(=O)ccc4cnc5ccc(-c6cnn(C)c6)cc5c43)cc21`, the remaining binding was 90% (KINOMEscan; 1 µM; relative to: DMSO control).
The remaining binding of `O=C(Nc1cc(-c2ccnc3[nH]ccc23)c(Cl)cn1)[C@H]1CCC[C@@H](NC(=O)C(F)(F)F)C1` is reported as 18% (binding, competition with immobilised ligand; 0.1 µM).
With `Nc1nc(Nc2ccccc2)sc1C(=O)c1ccccc1` the remaining activity was 12% (enzyme activity, inhibitor; 10 µM).
With `Nc1ncc2c(n1)-c1c([nH]c3ccc(C4=CCOCC4)cc13)CCC2` the remaining binding was 17% (binding, competition with immobilised ligand; 1 µM).
`NC(=O)[C@@H](O)C[C@H]1CCc2sc3ncnc(O[C@H]4CC[C@H](N5CCOCC5)CC4)c3c21` has an inhibition of 94% (enzyme activity, inhibitor; 10 µM).
`C=CC(=O)N1CCCC(n2c(=O)c3ncccc3n(Cc3ccc(Oc4ccccc4)cc3)c2=O)C1` (centres unmarked) has a remaining binding of 66% (cell-free assay, competition with immobilised ligand; 1 µM).
The inhibition of `CN1CC[C@@H](COc2cnc(C#N)cc2-c2ccn3nc(NC(=O)C4CC4)cc3c2)C1` is reported as 20% (enzyme activity, inhibitor; 1 µM).
`Cc1cccc(-c2ccc3nc(NC(=O)C4CCOCC4)nn3c2)c1` has a remaining activity of 36% (enzyme activity, Dundee kinase panel; 10 µM).
`C=CC(=O)Nc1cccc(-c2cnc3[nH]cc(C(=O)NC(C)(C)C)c3n2)c1` gave an inhibition of 12% and 9% (kinase activity; 0.1 µM).
`CC(C)=CC1OC(C)(C)C2C=C3C(=O)C(Cl)=CC(O)C3C3C(O)C4OC4C(=O)C132` (centres unmarked) gave a remaining binding of 69% (cell-free assay, competition with immobilised ligand; 10 µM).
For `Cc1cccc(O[C@H]2CCC[C@@H](C(C)CNCc3ccncc3)C2)c1` (relative stereo), the inhibition was 4% (cell-free assay; 1 µM).
`O=C1NCc2nc3c(ccc4ccccc43)cc21` gave an inhibition of 91.2% (enzyme activity, inhibitor, ADP detection; 10 µM).
`C[C@H]1CN(C(=O)c2cn(-c3ccnc(N)n3)c3cc(C#CC4(O)CCCCC4)ccc23)CCN1` gave an inhibition of 4% (enzyme activity, inhibitor, FRET; 1 µM).
The remaining binding of `COc1c(Cl)cccc1Nc1c(-c2ccncc2C#C[C@@]2(C)CCCN2C(=O)/C=C/CN(C)C)[nH]c2c1C(=O)NCC2` is reported as 75% (cell-free assay, competition with immobilised ligand; 3 µM).
For `CNC(=O)C[C@H](Cc1ccc(C#N)cc1)NC(=O)c1cc(-c2ccc(CN[C@H](C)c3ccc(C)cc3)o2)ccc1Cl`, “activity vs control” read 110% (enzyme activity, inhibitor; 1 µM).
With `CN1CCN(Cc2ccc(-c3ccc(CO[C@H]4CCC[C@@H]4NC(=O)c4cc(-c5cnn(C)c5)cnc4N)cc3)cc2)CC1` the inhibition was 11% (enzyme activity, inhibitor; 0.1 µM).
For `Cc1cccc(-c2ccc3nc(NC(=O)C4CCCO4)nn3c2)c1` (centres unmarked), the remaining activity was 59% (enzyme activity, Dundee kinase panel; 10 µM).

Repeated from above:
The remaining binding of `COc1c(Cl)cccc1Nc1c(-c2ccncc2C#C[C@@]2(C)CCCN2C(=O)/C=C/CN(C)C)[nH]c2c1C(=O)NCC2` is reported as 75% (cell-free assay, competition with immobilised ligand; 3 µM).
